Published values collected from several papers.
Every numbered part comes from another study and shows a few of its results, in no order.

Set 1
Target: Replicase polyprotein 1ab, polymerase (rep, Severe acute respiratory syndrome coronavirus 2, UniProt P0DTD1)
Read-out: enzyme activity
Mode: inhibitor
Concentration: 20 µM
CCCC(O)C(CC)CO (stereo not shown) gave an inhibition of -2.93%.
The inhibition of NC(=O)c1cn(Cc2c(F)cccc2F)nn1 is reported as 1.33%.
The inhibition of c1ccc2sc(SN3CCOCC3)nc2c1 is reported as -1.18%.
Cc1c(C)c2c(c(C)c1O)CCC(C)(COc1ccc(CC3SC(=O)NC3=O)cc1)O2 (stereo not shown) gave an inhibition of -3.5%.
The inhibition of COc1ccnc2[nH]cc(C(=O)C(=O)N3CCN(C(=O)c4ccccc4)C[C@H]3C)c12 is reported as 4.82%.
COc1cccc(CN(C(=O)CC(C)(C)C)[C@H]2C[C@@H](C(=O)N3CCNCC3)N(Cc3ccc4c(c3)OCO4)C2)c1 has an inhibition of -1.41%.
For CCC(O)(CC(N)=O)c1ccccc1 (stereo not shown), the inhibition was 10.1%.
The inhibition of Cc1nc2ccc(Oc3ccc(F)cc3)cc2c(=O)n1C[C@H]1CCCN(C(C)C)C1 is reported as 1.91%.
The inhibition of NP(N)(=O)NC(=O)c1ccc(F)cc1 is reported as -7.29%.
With CN(C)CCCCSC(=N)N the inhibition was 13%.
CC1(C)C(=O)NC2=C1C(=O)C(=O)c1ccccc12 gave an inhibition of 38.8%.
For Nc1ncnc2c1ncn2[C@@H]1O[C@H](COP(=O)(O)O)[C@@H](O)[C@H]1O, the inhibition was -12%.
The inhibition of O=C1Cc2cc(CCN3CCN(c4nsc5ccccc45)CC3)c(Cl)cc2N1 is reported as 12.1%.
For CC[C@H](c1ccc(O)cc1)[C@@H](CC)c1ccc(O)cc1, the inhibition was -0.93%.
CC(=O)OCC(=O)NCCCOc1cccc(CN2CCCCC2)c1 has an inhibition of -2.18%.
CN[C@@H]1C[C@@H](c2ccc(Cl)c(Cl)c2)c2ccccc21 gave an inhibition of -0.63%.
For O=C(NCc1ccccn1)Nc1nnc(-c2ccco2)o1, the inhibition was 3.17%.
With C[C@@H](C1=C(CCN(C)C)Cc2ccccc21)c1ccccn1 the inhibition was 3.68%.
For CC(=O)Nc1c(I)cc(I)c(C(=O)O)c1I, the inhibition was -10.4%.
For CCCc1nc(C(C)(C)O)c(C(=O)OCc2oc(=O)oc2C)n1Cc1ccc(-c2ccccc2-c2nnn[nH]2)cc1, the inhibition was 0.35%.
For CNCCCOc1cc(F)c(-c2c(Cl)nc3ncnn3c2N[C@@H](C)C(F)(F)F)c(F)c1, the inhibition was -5.02%.
With CCN(CC)CCOc1ccc(Nc2ncc3cc(-c4c(Cl)cccc4Cl)c(=O)n(C)c3n2)cc1 the inhibition was -1.6%.
For NC(N)=NCCNS(=O)(=O)c1cccc2cnccc12, the inhibition was 5.97%.
CNc1nc(C)nc(N[C@H]2CCC[C@@H](C(=O)NCc3ccc(C#N)cc3C(F)(F)F)C2)n1 gave an inhibition of -3.64%.
The inhibition of NC(N)=NCCC[C@H](NC(=O)c1sccc1NS(=O)(=O)c1cccc2nsnc12)C(=O)O is reported as 4.27%.

Set 2
Target: Sal-like protein 4, full length isoform A (SALL4, Homo sapiens, UniProt Q9UJQ4, residues 1-1053)
UniProt Q9UJQ4, sequence (whole entry, looked up): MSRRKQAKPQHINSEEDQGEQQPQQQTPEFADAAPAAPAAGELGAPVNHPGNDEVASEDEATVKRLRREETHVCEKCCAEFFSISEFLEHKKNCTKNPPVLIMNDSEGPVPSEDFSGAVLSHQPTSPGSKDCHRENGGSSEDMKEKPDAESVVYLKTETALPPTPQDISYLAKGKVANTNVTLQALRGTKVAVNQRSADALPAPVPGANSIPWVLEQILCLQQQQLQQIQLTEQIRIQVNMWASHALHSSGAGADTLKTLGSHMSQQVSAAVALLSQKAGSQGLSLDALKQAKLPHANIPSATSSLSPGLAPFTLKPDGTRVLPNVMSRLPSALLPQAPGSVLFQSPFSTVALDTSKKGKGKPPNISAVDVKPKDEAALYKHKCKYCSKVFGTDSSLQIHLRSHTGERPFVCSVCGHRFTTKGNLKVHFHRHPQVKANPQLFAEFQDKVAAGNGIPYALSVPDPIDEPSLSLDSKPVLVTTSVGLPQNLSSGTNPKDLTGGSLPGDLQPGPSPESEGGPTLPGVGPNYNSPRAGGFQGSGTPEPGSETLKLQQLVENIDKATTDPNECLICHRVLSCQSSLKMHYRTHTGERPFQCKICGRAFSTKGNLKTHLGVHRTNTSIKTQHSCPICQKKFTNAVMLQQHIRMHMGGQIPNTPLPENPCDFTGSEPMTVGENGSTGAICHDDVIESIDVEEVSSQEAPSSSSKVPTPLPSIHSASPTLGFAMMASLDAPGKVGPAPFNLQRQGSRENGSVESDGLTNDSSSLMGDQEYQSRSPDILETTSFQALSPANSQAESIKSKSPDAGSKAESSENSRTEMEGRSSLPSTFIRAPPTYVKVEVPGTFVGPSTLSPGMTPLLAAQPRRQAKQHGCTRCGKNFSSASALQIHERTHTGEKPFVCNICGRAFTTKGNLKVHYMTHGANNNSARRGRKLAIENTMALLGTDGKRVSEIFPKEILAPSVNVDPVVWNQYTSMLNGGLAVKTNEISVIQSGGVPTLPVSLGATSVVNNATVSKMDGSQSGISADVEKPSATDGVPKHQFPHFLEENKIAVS
Technique: universal PBM
Form: double-stranded DNA, one strand shown
Matrix: in vitro
Concentration: 600 nM
Setting: 8-mer, flanks averaged, mean of replicates
Direction: higher = stronger binding
`CTCGCTGA` gave an E-score of -0.12.
The E-score of `CCATTAAG` is reported as 0.0784.
The E-score of `ATAAGAGA` is reported as 0.264.
With `CTTTATTA` the E-score was 0.363.
For `CCGTACTC`, the E-score was -0.188.
For `ATGATTAA`, the E-score was 0.389.
`CCGGGAGA` gave an E-score of -0.259.
With `AATAATGC` the E-score was 0.336.

Set 3
Target: Interferon regulatory factor 5, full length, phosphomimetic (IRF5, Homo sapiens, UniProt Q13568-2, residues 1-514, S451D/S453D/S456D/S462D)
Technique: protein-binding microarray
Form: double-stranded DNA, one strand shown
Matrix: in vitro
Concentration: 940 nM top
Setting: 60-bp whole probe
With: salmon DNA 0.4 mg/ml
Baseline: random background probes
Direction: higher = stronger binding
Constant ends, left off below: GCCTAGCAC … GTCTTGATTCGCTTGACGCTGCTG
Under “fitted relative affinity”, `GACGGAATCGGGTATCGGGACGTGCTA` is recorded as 0.783 z-score.
`TTAGTTCTCCTTCTCCTTTAGTGCTAG`: “fitted relative affinity” 1.5 z-score.
`AACCACATAGGAAGAACAACGTGCTAG` — result for “fitted relative affinity”: 0.307 z-score.
Under “fitted relative affinity”, `CTGGCTTTGACTCTTTCTGTGTGCTAG` is recorded as 0.086 z-score.
For `GACGGTCTCGGTATCGCGACGTGCTAG`, “fitted relative affinity” read 3.79 z-score.
For `GACGATATCAGTTTCGATACGTGCTAG`, “fitted relative affinity” read 7.95 z-score.
For `TTAGATATCGGGACTGGATTTGTGCTA`, “fitted relative affinity” read 0.27 z-score.
For `GCTATTTTTAGGATGGGCTAGTGCTAG`, “fitted relative affinity” read -0.0844 z-score.

Set 4
Organism: SARS-CoV-2
Read-out: cytopathic effect
Cells: Vero E6
Concentration: 10 µM
With N=C(N)NN=C1C=CC(=NNC(N)=S)C=C1 the inhibition was 5.4%.
O=c1c(O)c(-c2cc(O)c(O)c(O)c2)oc2cc(O)cc(O)c12 has an inhibition of -3.3%.
With O=C(O)[C@H]1O[C@@H](Oc2cc3oc(-c4ccccc4)cc(=O)c3c(O)c2O)[C@H](O)[C@@H](O)[C@@H]1O the inhibition was 0.4%.

Set 5
Target: Max-binding protein MNT, bHLH-zipper, MAX partner unstated (MNT, Homo sapiens, UniProt Q99583, residues 220-300)
Technique: protein-binding microarray
Form: double-stranded DNA, one strand shown
Matrix: in vitro
Concentration: not given
Setting: k-mer, scored over probes, only values ≥0.25
Direction: higher = stronger binding
Target sequence (chain): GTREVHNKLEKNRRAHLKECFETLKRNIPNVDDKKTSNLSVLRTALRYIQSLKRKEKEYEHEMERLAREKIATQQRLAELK
The E-score of `CGTGACTA` is reported as 0.38.
`ATGAGGGC` has an E-score of 0.325.
`CCAACACG` gave an E-score of 0.318.
`TGCACGCA` gave an E-score of 0.331.
`ATGTGCAC` has an E-score of 0.421.

Other studies, line by line
Cell line: HEK-293T/ACE2
Concentration: concentration not given
Time: 16 (unit not given)
Baseline: vehicle
With CCN(CC)CCOC(=O)c1ccc(N)cc1 the viability was 86.8%.
The viability of COc1ccc(C(=O)c2ccccc2)c(O)c1 is reported as 104%.
The viability of C#C[C@]1(O)CC[C@H]2[C@@H]3CCC4=Cc5oncc5C[C@]4(C)[C@H]3CC[C@@]21C is reported as 104%.

Some of these lines once more (set 3):
For `GACGGTCTCGGTATCGCGACGTGCTAG`, “fitted relative affinity” read 3.79 z-score.
`AACCACATAGGAAGAACAACGTGCTAG` — result for “fitted relative affinity”: 0.307 z-score.
`TTAGTTCTCCTTCTCCTTTAGTGCTAG`: “fitted relative affinity” 1.5 z-score.
For `GACGATATCAGTTTCGATACGTGCTAG`, “fitted relative affinity” read 7.95 z-score.
Under “fitted relative affinity”, `GACGGAATCGGGTATCGGGACGTGCTA` is recorded as 0.783 z-score.
